Measured values from different studies.
Numbered parts are unrelated; each lists some results of a single study.

Amino acid sequences for entries named in this document (tags omitted). Residues count along the entry.
UniProt P37136, 32-614 limits assumed: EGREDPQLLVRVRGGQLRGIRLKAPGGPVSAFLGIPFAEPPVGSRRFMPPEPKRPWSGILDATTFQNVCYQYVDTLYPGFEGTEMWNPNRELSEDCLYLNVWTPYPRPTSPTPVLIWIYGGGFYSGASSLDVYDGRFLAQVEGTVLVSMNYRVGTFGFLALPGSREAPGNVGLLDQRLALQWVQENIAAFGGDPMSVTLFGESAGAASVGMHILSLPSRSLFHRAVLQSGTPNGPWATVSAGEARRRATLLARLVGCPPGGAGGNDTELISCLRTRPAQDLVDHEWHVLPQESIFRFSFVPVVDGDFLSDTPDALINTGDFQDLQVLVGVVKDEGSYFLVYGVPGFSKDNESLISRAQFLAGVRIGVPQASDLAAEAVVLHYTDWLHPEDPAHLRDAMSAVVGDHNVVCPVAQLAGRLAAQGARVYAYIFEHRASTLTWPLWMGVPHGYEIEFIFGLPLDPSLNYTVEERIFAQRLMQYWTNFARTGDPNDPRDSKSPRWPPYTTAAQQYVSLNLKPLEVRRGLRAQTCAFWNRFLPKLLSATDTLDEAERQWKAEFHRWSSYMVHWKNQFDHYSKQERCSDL

Block 1
Organism: SARS-CoV-2
Observed: viral replication
Cells: Vero
Tested at: 1 µM
Measurement: inhibition
COc1cc(C2C(C#N)=C(N)Oc3c2c(C)nn3-c2ccc(Cl)cc2)ccc1O (centres unmarked): 23.4%
CCOc1ccc(C2C(C#N)=C(N)Oc3c2c(C)nn3-c2ccc(Cl)cc2)cc1 (centres unmarked): 21.1%
Cc1nn(-c2ccc(Cl)cc2)c2c1C(c1ccc(O)cc1)C(C#N)=C(N)O2 (centres unmarked): 36.8%
Cc1nn(-c2ccc(Cl)cc2)c2c1C(c1ccc([N+](=O)[O-])cc1)C(C#N)=C(N)O2 (centres unmarked): 18.6%

Mixed results
CCC(CC)O[C@@H]1C=C(C(=O)O)C[C@H](N)[C@H]1NC(C)=O  IC50 (Neuraminidase (Influenza A virus, UniProt A0A024E3Q2); neuraminidase activity): 1.87 nM
COP(=O)(OC)Oc1ccc([N+](=O)[O-])cc1Cl  IC50 (Ache (Rattus norvegicus, UniProt P37136); inhibitor; rat, postnatal day 1, rat serum): 94 nM
CC[C@H](C)[C@H]1O[C@]2(C=C[C@@H]1C)C[C@@H]1C[C@@H](C/C=C(\C)[C@@H](O[C@H]3C[C@H](OC)[C@@H](O[C@H]4C[C@H](OC)[C@@H](O)[C@H](C)O4)[C@H](C)O3)[C@@H](C)/C=C/C=C3\CO[C@@H]4[C@H](O)C(C)=C[C@@H](C(=O)O1)[C@]34O)O2  Kd (Spike glycoprotein (Severe acute respiratory syndrome coronavirus 2, UniProt P0DTC2); biolayer interferometry; screening): 24100 nM
C[C@H](NC(=O)[C@H](c1cccnc1)N(C(=O)CC#N)c1ccc(-c2ccccc2)cc1)c1ccccc1  IC50 (Replicase polyprotein 1ab, main protease (rep, Severe acute respiratory syndrome coronavirus 2, UniProt P0DTD1); enzyme activity, inhibitor): > 20000 nM

Excerpt of the above (mixed results):
CC[C@H](C)[C@H]1O[C@]2(C=C[C@@H]1C)C[C@@H]1C[C@@H](C/C=C(\C)[C@@H](O[C@H]3C[C@H](OC)[C@@H](O[C@H]4C[C@H](OC)[C@@H](O)[C@H](C)O4)[C@H](C)O3)[C@@H](C)/C=C/C=C3\CO[C@@H]4[C@H](O)C(C)=C[C@@H](C(=O)O1)[C@]34O)O2  Kd (Spike glycoprotein (Severe acute respiratory syndrome coronavirus 2, UniProt P0DTC2); biolayer interferometry; screening): 24100 nM
